Published values pooled from the literature.
Protocols differ between the studies behind these lines. ± marks the error that the study gave.

Under “apparent volume of distribution (Vz/F)”, `C[C@@](O)(C(F)F)[C@H](NC(=O)c1ccc(C#CC#CC2CC2)cc1)C(=O)NO` is recorded as 32 ± 18 L/kg (CD-1 mice; oral, 40 mg/kg, not fasted).
The tracer uptake of `CN[C@](C)(C[18F])C(=O)O` is reported as 0.5 %ID/g (MDA-MB-468 tumour model; host not given, blood; 2 h, tumour-bearing).
The revertant count of `COc1ccc(CNc2nc(N3CCC[C@H]3CO)ncc2C(=O)NN)cc1Cl` is reported as 174 ± 13 (Salmonella typhimurium; TA100; 250 µg/plate, 48 h).
`COc1cc(C(=O)NCCOCCOCCOCCNC(=O)c2ccc([18F])nc2)ccc1NC(=O)C1NC(CC(C)(C)C)C(C#N)(c2ccc(Cl)cc2F)C1c1cccc(Cl)c1F` (stereo not drawn) has a tracer uptake of 4.08 %ID/g (HepG2 tumour model; host not given, spleen; 30 min, tumour-bearing).
`CCC(=O)N(C)c1ccc(Cl)c(Cl)c1` gave a revertant colonies of 59 ± 16.8 revertants/plate (Salmonella typhimurium; Ames test; TA100; 0.50 mg/plate, without S9).
`O=C(O)CCC(NP(=O)(O)OCCC[C@@H](NC(=O)CCC(NC(=O)c1ccc([18F])cc1)C(=O)O)C(=O)O)C(=O)O` (stereo partly drawn) gave a tracer uptake of 0.29 %ID/g (CWR22Rv1 tumour model; host not given, muscle; intravenous, 1 h, tumour-bearing).
`CCCCCc1cc(OC(=O)C(NC(=O)CCC(=O)O)C(C)C)c2c(c1)OC(C)(C)C1CCC(C)=CC21` (stereo not drawn) gave a Papp of 2.8 ± 0.3 ×10⁻⁶ cm/s (isolated rabbit cornea; 3 h, pH 7.4, 34 °C, donor Cremophor RH sample A 0.05%, BAK 0.02%, EDTA 0.1%).
With `O=C(O)CCC(NP(=O)(O)OCCC[C@@H](NC(=O)CCC(NC(=O)CCCCCNC(=O)CCCCCNC(=O)c1ccc([18F])cc1)C(=O)O)C(=O)O)C(=O)O` (stereo partly drawn) the tracer uptake was 0.21 %ID/g (CWR22Rv1 tumour model; host not given, bone; intravenous, 2 h, tumour-bearing).
For `COc1ccc(CNc2nc(N3CCC[C@H]3CO)ncc2C(=O)NNC(=O)c2cnc(N3CCC[C@H]3CO)nc2NCc2ccc(OC)c(Cl)c2)cc1Cl`, the revertant count was 201 ± 7 (Salmonella typhimurium; TA102; 1000 µg/plate).
